Assay results collected from several papers.
Lines come from different studies, so protocols differ. ± gives the spread as reported.
Organism: Plasmodium falciparum

SMILES | assay | system | conditions | EC50 [nM]
Cc1c(C(=O)NC(C)c2nc[nH]n2)[nH]c(Cl)c1C1(c2ccc(C(F)(F)F)nc2)CC1 (stereo not shown) | parasite growth | 3D7 | – | 130 ± 7.1
CCCCN(CCCC)CC(O)c1cc(Cl)cc2c1-c1ccc(Cl)cc1/C2=C/c1ccc(Cl)cc1 (stereo not shown) | gametocyte viability, luciferase | stage V gametocytes | 48 h | 2380
CCOCC(=O)N1CCC[C@H](C(=O)NCc2nc(-c3ccc(C#N)cc3)cs2)C1 | – | – | 72 h | 6.6
CCn1cc(C2CC2)c2c(Cc3cnc(C(F)(F)F)c(Cl)c3)n(C)nc2c1=O | parasite growth | 3D7 | – | 31.6
CCOCC(=O)N1CCC[C@H](C(=O)NCc2nc(-c3ccc(C#N)cc3)cs2)C1 | SYBR Green growth | asexual blood-stage parasites, 3D7 | 72 h | 8.1 ± 3
Cc1c(C2(c3ccc(C(F)(F)F)nc3)CC2)c[nH]c1C(=O)NC(C)c1nc[nH]n1 (stereo not shown) | parasite growth | 3D7 | – | 3300 ± 280
O=S(=O)(c1ccc(-c2ccc3nccc(Nc4nnc(C5CC5)s4)c3c2)cc1)N1CCOCC1 | parasite growth, SYBR Green | W2 | – | 1400
CCn1cc(-c2nc(C)no2)c(=O)c2cc(F)c(N3CCC(C)CC3)cc21 | parasite growth, [3H]hypoxanthine incorporation | K1 | 72 h | 7
Cc1c(-c2n[nH]c3cc(C(F)(F)F)ccc23)c[nH]c1C(=O)NC(C)c1cc(C(N)=O)[nH]n1 (stereo not shown) | parasite growth | 3D7 | – | 2700
CCN(c1ccc(C)cc1)c1ccc(NC(=O)CN(C)c2ccccc2N2CCCC2=O)cn1 | female gamete formation | NF54 stage V gametocytes | 48 h | 766
CCn1cc(C)c2c([C@H](N)c3ccc(C(F)(F)F)nc3)n(C)nc2c1=O | parasite growth | 3D7 | – | 63.1
CC1(C)c2nc(-c3ccc(F)cc3)c(Nc3ccc(F)cc3)n2CCN1C(=O)CN | parasite growth, [3H]hypoxanthine incorporation | Dd2 | 72 h | 8
COCC(=O)N1CCC[C@H](C(=O)NCc2nc(-c3cccnc3)cs2)C1 | SYBR Green growth | asexual blood-stage parasites, 3D7 | 72 h | 92 ± 12
CCN1CCN(Cc2ccc(Nc3nc4ccc(Oc5ccnc(NC(C)=O)c5)c(C)c4n3C)cc2C(F)(F)F)CC1 | parasite growth, SYBR Green I | Dd2 | 72 h | 2600 ± 400
Cc1c(Cc2ccc(C(F)(F)F)nc2)c[nH]c1C(=O)NC(C)c1ncn(C)n1 (stereo not shown) | parasite growth | 3D7 | – | 1300
CCOCC(=O)N1CCC[C@H](C(=O)NCc2nc(-c3ccc(C)nc3)cs2)C1 | SYBR Green | 3D7 | 72 h | 4.3 ± 0.83
O=C(NCc1nc(-c2ccccc2)cs1)[C@H]1CCCN(C(=O)c2ccco2)C1 | SYBR Green growth | asexual blood-stage parasites, 3D7 | 72 h | 380 ± 60
CCn1cc(-c2nc(C)no2)c(=O)c2cc(F)c(N3CCC(Cc4ccccc4)CC3)cc21 | parasite growth, [3H]hypoxanthine incorporation | RF12 | 72 h | 1
COc1ccc(OCCCO)cc1-c1cn2cc(-c3nnc(NCCCCc4ccccc4)o3)ccc2n1 | parasite growth, LDH colorimetric | 3D7 Hyp1-Nluc | 72 h | 2620
CCn1cc(C)c2c([C@H](O)c3ccc(C(F)(F)F)nc3)n(C)nc2c1=O | parasite growth | 3D7 | – | 20
COCC(=O)N1CCCC(C(=O)NCc2nc(-c3ccccc3)cs2)C1 (racemic) | – | Dd2 bulk culture after selection | concentration not given, intermittent drug pressure, pulse 1 | 120
Cn1nc2c(=O)n(C3CC3)cnc2c1[C@](O)(c1cnc(C(F)(F)F)c(Cl)c1)C(F)(F)F | parasite growth | – | – | 1.7
COCC(=O)N1CCC[C@H](C(=O)NCc2nc(-c3ccc(Cl)cc3)cs2)C1 | SYBR Green growth | asexual blood-stage parasites, 3D7 | 72 h | 18 ± 4.5

SMILES | assay | system | conditions | EC50 [nM]
O=S(=O)(c1ccc(-c2ccc3nccc(Nc4ccccc4)c3c2)cc1)N1CCOCC1 | parasite growth, SYBR Green | TM91C235 | – | 260
CCCOCC(=O)N1CCC[C@H](C(=O)NCc2nc(-c3ccccc3)cs2)C1 | SYBR Green growth | asexual blood-stage parasites, 3D7 | 72 h | 300 ± 59
CNS(=O)(=O)c1ccccc1Nc1nc(Nc2ccc(N3CCOCC3)cc2OC)ncc1Br | parasite growth, LDH colorimetric | 3D7 Hyp1-Nluc | 72 h | 290
Cn1nc2c(=O)n(C3CC3)ccc2c1Cc1ccc(C(F)(F)F)nc1 | parasite growth | 3D7 | – | 631
CC(=O)Nc1cc(Oc2ccc3c(c2)nc(Nc2ccc(F)cc2F)n3C)ccn1 | parasite growth, SYBR Green I | Dd2 | 72 h | 2400 ± 400
CC/N=C(\c1ccc(OC)c(OC)c1)N1CCCc2cc(C3=NNC(=O)SC3C)ccc21 (stereo not shown) | parasite growth, LDH colorimetric | 3D7 Hyp1-Nluc | 72 h | 2040
O=S(=O)(c1ccc(-c2ccc3nccc(Nc4ccnnc4)c3c2)cc1)N1CCOCC1 | parasite growth, SYBR Green | TM91C235 | – | > 20000
COc1ccc(NC(=O)N2CCCCN3[C@H](CN(C)S(C)(=O)=O)[C@H](c4ccc(C#Cc5ccccc5)cc4)[C@@H]3C2)cc1 | blood-stage growth inhibition | Dd2 | – | 26
CCN1CCN(Cc2ccc(Nc3nc4ccc(Oc5ccnc(NC(=O)C6CCN(C)CC6)c5)cc4[nH]3)cc2C(F)(F)F)CC1 | parasite growth, SYBR Green I | Dd2 | 72 h | 400 ± 40
O=[N+]([O-])c1ccc(Nc2ccnc3ccc(-c4ccc(S(=O)(=O)N5CCOCC5)cc4)cc23)cn1 | parasite growth, SYBR Green | TM91C235 | – | 560
COc1cc(C(=O)N(C)C)ccc1-c1cc2nccc(-c3ccc4ccncc4c3)c2o1 | [3H]-hypoxanthine incorporation | Dd2 | 72 h | 221
CCN1CCN(Cc2ccc(Nc3nc4cc(Oc5ccnc(NC(=O)C6CCN(C)CC6)c5)ccc4n3C)cc2C(F)(F)F)CC1 | parasite growth, SYBR Green I | Dd2 | 72 h | 400 ± 10
O=S(=O)(c1ccc(-c2ccc3nccc(Nc4cnccn4)c3c2)cc1)N1CCOCC1 | parasite growth, SYBR Green | TM91C235 | – | > 20000
C[C@H]1[C@@H](C(=O)NCc2nc(-c3ccc(C#N)cc3)cs2)CCCN1C(=O)[C@H]1CCC(=O)O1 | SYBR Green growth | asexual blood-stage parasites, 3D7 | 72 h | 5.5 ± 0.12
C[C@H]1[C@@H](O)O[C@@H]2O[C@@]3(C)CC[C@H]4[C@H](C)CC[C@@H]1[C@@]24OO3 | – | NF54 | 72 h, stage III gametocytes | 11.2
COc1ccc(Nc2ccnc3ccc(-c4ccc(S(=O)(=O)N5CCOCC5)cc4)cc23)cc1Cl | parasite growth, SYBR Green | TM91C235 | – | 160
CCn1cc(C2CC2)c2c(Cc3cnc(C(F)(F)F)c(OC)c3)n(C)nc2c1=O | parasite growth | 3D7 | – | 15.8
CCOCC(=O)N1CCCC(C(=O)NCc2nc(-c3ccccc3)co2)C1 (stereo not shown) | SYBR Green growth | asexual blood-stage parasites, 3D7 | 72 h | 220 ± 46
Cn1nc2c(=O)n(C)ccc2c1Cc1ccc(C(F)(F)F)nc1 | parasite growth | 3D7 | – | 4500
COc1ccc(Nc2ccnc3ccc(-c4ccc(S(=O)(=O)N5CCOCC5)cc4)cc23)cc1C | parasite growth, SYBR Green | TM91C235 | – | 250
CCOCC(=O)N1CCC[C@H](C(=O)NCc2nc(-c3ccc(NCCCN)nc3)cs2)C1 | SYBR Green growth | asexual blood-stage parasites, 3D7 | 72 h | 310 ± 110
Cn1nc2c(=O)n(C3CC3)ncc2c1[C@](N)(c1ccc(C(F)(F)F)c(Cl)c1)C1CC1 | parasite growth, parasite reduction ratio | 3D7 | – | 3.3
Cc1nnc(Nc2ccnc3ccc(-c4ccc(S(=O)(=O)N5CCOCC5)cc4)cc23)nc1C | parasite growth, SYBR Green | D6 | – | 240
